# Experimental data collected from several papers.
# Each line is one published result; not all experiments were run side by side. ± gives the spread as reported.
SMILES,cell line,assay,conditions,IC50
CC(C)c1cccc(C(C)C)c1N1CCN(c2c(C(C)C)cccc2C(C)C)C1=[Se].[Cl][Ag],PSN1,"cell growth or viability, MTT",72 h,5.1 µM
COCC1CN(C2CCN(c3cc(OC)c(Nc4ncc(Br)c(Nc5ccc6c(c5P(C)(C)=O)OCCO6)n4)cc3C)CC2)C1,Ba/F3 EGFR Del19/T790M/C797S,"cell growth, CellTiter-Glo",3 days,0.0249 µM
CC(=O)NCCCN(C)CCCNc1cccc2c1C(=O)c1cccc(NCCCN(C)CCCNC(C)=O)c1C2=O,HSC-2,"cell growth or viability, CCK-8",48 h,0.5 µM
FC(F)(F)c1n[nH]cc1-c1nc2ccc3[nH]ncc3c2c2c1CCCCC2,Molm13 resistant FLT3-ITD D835Y,cell growth,72 h,0.0137 µM
CC(C)c1cccc(C(C)C)c1-n1c(Cl)c(Cl)n(-c2c(C(C)C)cccc2C(C)C)c1=[Se].[Cl][Au],A2780 ADR,MTT,72 h,0.2 ± 0.02 µM
Cc1ccc(-c2nc(-c3ccccc3)c(-c3ccccc3)[nH]2)s1,human foreskin fibroblasts HFF,"cell viability, colorimetric",72 h,> 1000 µg/mL
Cc1nn(C)cc1-c1nc2ccc3[nH]ncc3c2c2c1CCCC2,MV4-11,"cell growth or viability, resazurin",72 h,0.744 µM
C=C1C(=O)OC2C1CCC1(C)CC1CCC1(C)OC21 (centres unmarked),B117P murine AML cells,cell growth,,2.9 ± 0.6 µM
CN1CCN(C(=O)c2cccc(-c3ccc4[nH]c5ncc(/C=C/c6ccccc6)cc5c4c3)c2)CC1,parental Ba/F3 (IL-3 dependent),"cell proliferation, [3H]-thymidine incorporation",,2.8 µM
CCNC(=O)OCc1c(COC(=O)NCC)c(-c2ccc(OC)cc2)n2c1Cc1ccccc1-2,PC-9,"cell growth or viability, resazurin",72 h,82.7 µM
CC(C)c1ccc(/C=C/C(=O)NC(=O)N[C@@H]2O[C@H](CO)[C@@H](O)[C@H](O)[C@H]2O)cc1,L1210,cell growth or viability,48 h,25 µM
COCCNc1nc(-c2nccn2C)nc2sc(-c3cccc(OC)c3Cl)c(-c3ccccc3)c12,NCI-H1975 (KRAS wild type),"Western blot, item: phospho-MEK, ERK1/2 and Akt","6 h, together with: EGF 15 min",1 to 3 µM
CC(C)c1cccc(C(C)C)c1[N+]#[C][Pd-2]([Cl])([Cl])[C]#[N+]c1c(C(C)C)cccc1C(C)C,OVCAR-3,cell growth or viability,,> 100 µM
CC(C)=CCc1c2c(c(O)c3c(=O)c(-c4ccc(O)cc4O)coc13)C=CC(C)(C)O2,"MDA-MB-231, Huh-7, KKU100, NHDF cells","cell viability, MTT",24 h,13.9 to 30.9 µM
C/C1=C\CC[C@@]2(C)O[C@H]2[C@H]2OC(=O)[C@@H](CSC(=S)N(C)Cc3cccnc3)[C@@H]2CC1,KG-1a,"cell growth or viability, MTT",72 h,6.4 µM
COC(C)(C)C(O)COc1c2ccoc2cc2oc(=O)ccc12 (centres unmarked),L5178Y,"cell growth or viability, MTT",24 h,56.4 µM
CC(=O)OC[C@H]1O[C@@H](NC(=O)NC(=O)/C=C/c2ccc(C(C)C)cc2)[C@H](OC(C)=O)[C@@H](OC(C)=O)[C@@H]1OC(C)=O,L1210,cell growth or viability,48 h,24 µM
C/C1=C\CC[C@@]2(C)O[C@H]2[C@H]2OC(=O)[C@@H](CSC(=S)N3CCN(CCO)CC3)[C@@H]2CC1,KG-1a,"cell growth or viability, MTT",72 h,8.1 µM
Cc1cn([C@@H]2O[C@H](CSSc3ccccn3)[C@@H](O)[C@H](F)[C@H]2O)c(=O)[nH]c1=O,L1210,cell growth or viability,,120 µM
Oc1cccc2[nH]c(/C(=N/OCc3ccccc3)c3cc4cccc(O)c4o3)nc12,HCT-15 (KRAS G13D),"cell viability, CellTiter-Glo",72 h,25.6 ± 3.7 µM
Cc1ncsc1-c1ccc(C(CO)NC(=O)C2CC(O)CN2C(=O)C(C(C)C)n2cc(-c3ccc(COc4c(-c5c(C)c(F)cc6[nH]ncc56)c(C5CC5)cc5c(N6CC7CC6CN7)nc(OC6CCOCC6)nc45)cc3)nn2)cc1 (centres unmarked),HT-29 (KRAS wild type),"cell growth, CellTiter-Glo","144 h, 3D culture",> 10 µM
CC1(C)Cc2c(-c3ccccc3)c(-c3ccc(Cl)cc3)c(CC(=O)O)n2C1,mouse Peritoneal macrophage,"PGE2 release, inhibitor",LPS-stimulated,1.31 µM
Cc1c(C)n(-c2c(C(C)C)cccc2C(C)C)c(=[Se])n1-c1c(C(C)C)cccc1C(C)C.[Cl][Au],PSN1,"cell growth or viability, MTT",72 h,0.3 µM
Cc1cc(C)c(-n2c3c([n+](-c4c(C)cc(C)cc4C)[c]2[Au-][Cl])-c2cccc4cccc-3c24)c(C)c1,PSN1,"cell growth or viability, MTT",72 h,14 µM
O=C(NCc1cc(F)cc(F)c1)[C@@]1(O)CCN(c2ccc3[nH]ccc3c2)C1=O,A549 mock clone,"cell viability, CellTiter-Blue",96 h,0.12 µM
[Cl][Au].[Se]=c1n(C23CC4CC(CC(C4)C2)C3)ccn1C12CC3CC(CC(C3)C1)C2,LoVo-OXP (oxaliplatin-resistant),MTT,72 h,4.9 ± 1.1 µM
O=C(Cc1ccc2ccccc2c1)N[C@H](Cc1ccccc1)C(=O)N[C@H](Cc1ccc(O)cc1)C(=O)N[C@H](Cc1ccccc1)C(=O)N[C@H](Cc1ccc(OP(=O)(O)O)cc1)C(=O)O,SAOS-2,"cell growth or viability, MTT",,132 µg/mL
CC(C)c1cccc(C(C)C)c1[N+]#[C][Pt-]([Cl])([Cl])=[C](Nc1ccc(CN[C](Nc2c(C(C)C)cccc2C(C)C)=[Au][Cl])cc1)Nc1c(C(C)C)cccc1C(C)C,OVCAR-3,cell growth or viability,,> 100 µM
[NH2][Pt]1([NH2])([Cl])([O]C(=O)C(Cl)Cl)[O]C(=O)C2(CC(=O)C2)C(=O)[O]1,BGC803,"cell growth or viability, MTT",,57.7 µM
C=C(CC)C(=O)c1ccc(OCC(=O)NCCNC(=O)COc2ccc(C(=O)C(=C)CC)c(Cl)c2Cl)c(Cl)c1Cl,"CoC1/DDP, cisplatin-resistant",cell growth,72 h,~1.2 µM
C=CCc1ccc(OCc2nnc(SCC(=O)Nc3ccc(Cl)cc3Cl)o2)c(OC)c1,"MCF7, SK-OV-3, PC-3","cell growth, MTT",,≤ 10 µM
CC1OC(OCC2OC(Oc3cc(O)c4c(=O)cc(-c5ccc(O)c(O)c5)oc4c3)C(O)C(O)C2O)C(O)C(O)C1O (centres unmarked),CEM/ADR5000 P-gp overexpressing,"cell viability, resazurin reduction",72 h,> 100 µM
COC(=O)[C@@H]1[C@@H](OC)[C@H](OC(=O)c2cc(OC)c(OC)c(OC)c2)C[C@@H]2CN3CC[C@]4(O[C@@H]3C(=O)[C@@H]21)C(=O)Nc1cc(OC)ccc14,SU-DHL-4,"cell growth or viability, trypan blue",72 h,2.93 µM
CCCCCCCCCCCCCCCC(=O)OCCN1CCN(c2cc(Nc3ncc(C(=O)Nc4c(C)cccc4Cl)s3)nc(C)n2)CC1,BV-173,"cell growth or viability, MTT",72 h,< 5.12e-05 µM
Cc1cc(C)c([N+]#[C][Pd-]([Cl])([Cl])=[C](Nc2cccc(CN[C](NC(C)(C)C)=[Au][Cl])c2)Nc2c(C)cc(C)cc2C)c(C)c1,OVCAR-3,cell growth or viability,,> 100 µM
N#Cc1c(-c2cccs2)cc(-c2cccc3ccccc23)n2c(Cc3ccccc3)nnc12,RKOp27,"cell growth or viability, MTT",72 h,0.736 µM
COc1cc(-c2nc3ccc(C(=O)NCCCN4CCN(c5ccccn5)CC4)cc3n2C2CCC2)cc(OC)c1OC,293 T-BRE-Luc,"reporter gene, inhibitor","6 h, together with: BMP2-induced BMP2 5 ng/mL",0.94 µM
CC(C)c1cccc(C(C)C)c1-n1ccn(-c2c(C(C)C)cccc2C(C)C)c1=[Se].[Cl][Au],H157 spheroids,acid phosphatase,"72 h, 3D spheroid",28.2 ± 5.2 µM
CCCC(CCC)C(=O)[O][Pt]([NH2])([NH2])([Cl])([Cl])[O]C(=O)C(C)c1ccc(CC(C)C)cc1 (centres unmarked),2008 cisplatin-sensitive,"cytotoxicity, MTT",72 h,1.35 ± 0.29 µM
C=C1C(=O)OC2CC3=C[C@@H](C/C(C)=C/C(OC(=O)Cc4cccc5ccccc45)[C@H]12)OC3=O (some centres unmarked),SK-N-MC,"cell growth or viability, MTT",24 h,0.26 µM
CCC(C(=O)O)C1CCC(C)C(C(C)C(O)C(C)C(=O)C(CC)C2OC3(C=CC(NCc4cn(CCCO)nn4)C4(CCC(C)(C5CCC(O)(CC)C(C)O5)O4)O3)C(C)CC2C)O1 (centres unmarked),HMLER CD24low/CD44high,cell proliferation,72 h,8.83 ± 1.1 µM

# Some of these lines once more:
SMILES,cell line,assay,conditions,IC50
Oc1cccc2[nH]c(/C(=N/OCc3ccccc3)c3cc4cccc(O)c4o3)nc12,HCT-15 (KRAS G13D),"cell viability, CellTiter-Glo",72 h,25.6 ± 3.7 µM
Cc1ncsc1-c1ccc(C(CO)NC(=O)C2CC(O)CN2C(=O)C(C(C)C)n2cc(-c3ccc(COc4c(-c5c(C)c(F)cc6[nH]ncc56)c(C5CC5)cc5c(N6CC7CC6CN7)nc(OC6CCOCC6)nc45)cc3)nn2)cc1 (centres unmarked),HT-29 (KRAS wild type),"cell growth, CellTiter-Glo","144 h, 3D culture",> 10 µM
CC1(C)Cc2c(-c3ccccc3)c(-c3ccc(Cl)cc3)c(CC(=O)O)n2C1,mouse Peritoneal macrophage,"PGE2 release, inhibitor",LPS-stimulated,1.31 µM
Cc1c(C)n(-c2c(C(C)C)cccc2C(C)C)c(=[Se])n1-c1c(C(C)C)cccc1C(C)C.[Cl][Au],PSN1,"cell growth or viability, MTT",72 h,0.3 µM
Cc1cc(C)c(-n2c3c([n+](-c4c(C)cc(C)cc4C)[c]2[Au-][Cl])-c2cccc4cccc-3c24)c(C)c1,PSN1,"cell growth or viability, MTT",72 h,14 µM
